Measured values gathered from unrelated publications.
Protocols differ between the studies behind these lines. “And” joins repeats or separate records; there may be more than shown. Numbers after ± are the reported error.

Cc1cc(/C=C/C#N)cc(C)c1Oc1nc(NC2CCN(Cc3ccc(P(C)(C)=O)cc3)CC2)nc2ccsc12  AUC(0-inf) (male Sprague-Dawley rats, plasma; intravenous, 2 mg/kg): 640 ± 10.3 ng·h/mL
CC(C)(C)C(=O)Nc1ccc2[nH]c(CN3CCC(N(CCCN4CCOCC4)CC4OC(n5cnc6c(N)ncnc65)C(O)C4O)CC3)nc2c1 (centres unmarked)  AUC(0-inf) (Sprague-Dawley rat male, plasma; intravenous, 20 mg/kg): 2820 ± 649 ng·h/mL
COc1cc(C=CC(=O)OCC2OC(OC3C(c4c(OC)cc5oc(-c6ccc(O)cc6)cc(=O)c5c4O)OC(CO)C(O)C3O)C(O)C(O)C2O)ccc1O (centres unmarked)  AUC(0-inf) (male Sprague-Dawley rat, normal, plasma; oral, 6.8 g/kg): 23.5 ± 6.42 ng·h/mL
Oc1ccc2ccccc2c1/N=N/c1ccccc1  AUC(0-inf) (Sprague-Dawley rats both sexes, whole blood; oral, 50 mg/kg): 1150 ng·h/mL
N=C(N)NCCC[C@H](NC(=O)[C@@H]1CCCN1C(=O)[C@H](Cc1ccccc1)NC(=O)[C@@H]1CCCN1C(=O)[C@H](Cc1c[nH]cn1)NC(=O)[C@@H](N)Cc1ccccc1)C(=O)O  AUC(0-inf) (Sprague-Dawley rat male, plasma; intravenous, 10 mg/kg): 22.5 ± 6.42 ng·h/mL
O=C(O)c1cccc(S(=O)(=O)Nc2ccccc2)c1  AUC(0-inf) (patients with moderate liver dysfunction, plasma; intravenous, 400 mg/m^2 belinostat, single 30 min infusion, cycle 1 day -7, mean): 14800 ng·h/mL
COc1cc2ncnc(Oc3ccc(Nc4nccc5[nH]cc(-c6ccc(F)cc6)c(=O)c45)cc3F)c2cc1OC  AUC(0-inf) (Sprague-Dawley rat, plasma; intravenous, 5 mg/kg): 421000 ng·h/mL
C=C(c1ncc(C(=O)O)cn1)c1cc2c(cc1C)C(C)(C)CCC2(C)C  AUC(0-inf) (rat, Sprague-Dawley, male, plasma; oral, 100 mg/kg, sesame oil vehicle): 84000 ng·h/mL
C#Cc1cccc(Nc2ncnc3cc(OC)c(OCCCN4CCOCC4)cc23)c1  AUC(0-inf) (Sprague-Dawley rat, plasma; intravenous, 10 mg/kg): 6150 ± 908 ng·h/mL
NC(=O)c1cnc2[nH]ccc2c1NC1C2CC3CC1CC(OS(=O)(=O)O)(C3)C2 (centres unmarked)  AUC(0-inf) (Japanese adults, moderate hepatic impairment, plasma; oral, 150 mg single dose, fasting, Child-Pugh B): 2490 ng·h/mL
Oc1ccc2ccccc2c1/N=N/c1ccc(/N=N/c2ccccc2)cc1  AUC(0-inf) (Sprague-Dawley rats both sexes, whole blood; oral, 50 mg/kg): 2710 ng·h/mL
CN1CCN(c2ccc(Nc3ncc(Cl)c(Nc4ccccc4P(C)(C)=O)n3)cc2Br)CC1  AUC(0-inf) (Sprague-Dawley rat, male, plasma; oral, 25 mg/kg): 4340 ng·h/mL and 3650 ng·h/mL
CCCCC/C=C/C=C/C(=O)NCC(C)C  AUC(0-inf) (rat, sham-operated, plasma; oral, 50 mg/kg): 354 ± 231 ng·h/mL
NC(=O)/C=C/c1cccc(S(=O)(=O)Nc2ccccc2)c1  AUC(0-inf) (patients with moderate liver dysfunction, plasma; intravenous, 400 mg/m^2 belinostat, single 30 min infusion, cycle 1 day -7, mean): 17600 ng·h/mL
COc1ccc(S(=O)(=O)N2CCc3ccccc3C2)cc1N1CCN(C(=O)c2ccc(F)cc2C(F)(F)F)CC1  AUC(0-inf) (rat, plasma; intravenous, 10 mg/kg): 1720 ng·h/mL
CC1(C)C2CCC1(C)C(OC(=O)/C=C/c1ccc(O)c(O)c1)C2 (centres unmarked)  AUC(0-inf) (Sprague-Dawley rat, plasma; oral gavage, 30 mg/kg): 1490 ± 66.4 ng·h/mL
COC(=O)/C=C/C(=O)c1ccc(OC)cc1  AUC(0-inf) (Sprague-Dawley rat, both sexes, plasma; oral, 100 mg/kg): 1150 ± 167 ng·h/mL

For quick reference, copied from above:
COc1cc(C=CC(=O)OCC2OC(OC3C(c4c(OC)cc5oc(-c6ccc(O)cc6)cc(=O)c5c4O)OC(CO)C(O)C3O)C(O)C(O)C2O)ccc1O (centres unmarked)  AUC(0-inf) (male Sprague-Dawley rat, normal, plasma; oral, 6.8 g/kg): 23.5 ± 6.42 ng·h/mL
Oc1ccc2ccccc2c1/N=N/c1ccccc1  AUC(0-inf) (Sprague-Dawley rats both sexes, whole blood; oral, 50 mg/kg): 1150 ng·h/mL
